Results pooled from the literature.
Each line is one published result; not all experiments were run side by side.

SMILES | test | test system | conditions | how to read | quantity | result
Nc1nc(N)c(OCCCOc2ccccc2CCC(=O)O)c(C2CCCCC2)n1 |  | BALB/c mouse, female | oral, 3 mg/kg | baseline: intravenous 1 mg/kg | oral bioavailability | ~40%
CC(c1cncnc1)n1c(=S)[nH]c2ccc(Cl)cc2c1=O (stereo not drawn) |  | mouse, plasma | oral, 50 mg/kg |  | oral bioavailability | 135%
Cc1ccccc1C(=O)NN=Cc1ccc(O)c(Br)c1 |  | normal C3H/HeN mouse, plasma | intraperitoneal, 0.8 mg/kg | baseline: intravenous 1.6 mg/kg | oral bioavailability F | 92.2%
NC(=O)c1cccc(-c2cc(OC(=O)NC3CCCCC3)ccc2O)c1 |  | mouse | 10 mg/kg |  | oral bioavailability | 5.3%
Cc1ccc(F)c2cc(C(=O)N[C@@H]3CCC[C@H](N4CC[C@H](N(C)S(C)(=O)=O)C4)C3)[nH]c12 |  | CD1 mouse | oral, 30 mg/kg |  | oral bioavailability | 28.4%
C[C@H]1COCCN1c1nc(NCc2cccnc2C(F)(F)F)c2cccnc2n1 |  | BALB/c SCID mouse | oral, 90 mg/kg |  | oral bioavailability | 91%
COc1ccnc(C(=O)N[C@H]2COC(=O)[C@H](Cc3ccccc3)[C@@H](OC(=O)C(C)C)[C@H](C)OC2=O)c1OCOC(=O)C(C)C | item: urine, rinse and air | mouse, female | oral |  | oral absorption | 25%
O=c1c2cc(Cl)c(CO)cc2[nH]c(=S)n1Cc1cncnc1 |  | mouse | oral, 3.98 mg/kg |  | oral bioavailability | 26.2%
C[C@]12CC[C@H](O)CC1=CC[C@@H]1[C@@H]2CC[C@]2(C)C(n3cnc4ccccc43)=CC[C@@H]12.Cl |  | CD-1 mouse male, plasma | oral |  | oral half-life | 3.9 h

For quick reference, copied from above:
SMILES | test | test system | conditions | how to read | quantity | result
O=c1c2cc(Cl)c(CO)cc2[nH]c(=S)n1Cc1cncnc1 |  | mouse | oral, 3.98 mg/kg |  | oral bioavailability | 26.2%
C[C@]12CC[C@H](O)CC1=CC[C@@H]1[C@@H]2CC[C@]2(C)C(n3cnc4ccccc43)=CC[C@@H]12.Cl |  | CD-1 mouse male, plasma | oral |  | oral half-life | 3.9 h
